Results from different studies.
Parts stem from different laboratories: compare values within a part only. Values joined by “and” are separate records of one study, mostly repeats; a detail may differ.
UniProt Q56UN5, sequence (whole entry, looked up): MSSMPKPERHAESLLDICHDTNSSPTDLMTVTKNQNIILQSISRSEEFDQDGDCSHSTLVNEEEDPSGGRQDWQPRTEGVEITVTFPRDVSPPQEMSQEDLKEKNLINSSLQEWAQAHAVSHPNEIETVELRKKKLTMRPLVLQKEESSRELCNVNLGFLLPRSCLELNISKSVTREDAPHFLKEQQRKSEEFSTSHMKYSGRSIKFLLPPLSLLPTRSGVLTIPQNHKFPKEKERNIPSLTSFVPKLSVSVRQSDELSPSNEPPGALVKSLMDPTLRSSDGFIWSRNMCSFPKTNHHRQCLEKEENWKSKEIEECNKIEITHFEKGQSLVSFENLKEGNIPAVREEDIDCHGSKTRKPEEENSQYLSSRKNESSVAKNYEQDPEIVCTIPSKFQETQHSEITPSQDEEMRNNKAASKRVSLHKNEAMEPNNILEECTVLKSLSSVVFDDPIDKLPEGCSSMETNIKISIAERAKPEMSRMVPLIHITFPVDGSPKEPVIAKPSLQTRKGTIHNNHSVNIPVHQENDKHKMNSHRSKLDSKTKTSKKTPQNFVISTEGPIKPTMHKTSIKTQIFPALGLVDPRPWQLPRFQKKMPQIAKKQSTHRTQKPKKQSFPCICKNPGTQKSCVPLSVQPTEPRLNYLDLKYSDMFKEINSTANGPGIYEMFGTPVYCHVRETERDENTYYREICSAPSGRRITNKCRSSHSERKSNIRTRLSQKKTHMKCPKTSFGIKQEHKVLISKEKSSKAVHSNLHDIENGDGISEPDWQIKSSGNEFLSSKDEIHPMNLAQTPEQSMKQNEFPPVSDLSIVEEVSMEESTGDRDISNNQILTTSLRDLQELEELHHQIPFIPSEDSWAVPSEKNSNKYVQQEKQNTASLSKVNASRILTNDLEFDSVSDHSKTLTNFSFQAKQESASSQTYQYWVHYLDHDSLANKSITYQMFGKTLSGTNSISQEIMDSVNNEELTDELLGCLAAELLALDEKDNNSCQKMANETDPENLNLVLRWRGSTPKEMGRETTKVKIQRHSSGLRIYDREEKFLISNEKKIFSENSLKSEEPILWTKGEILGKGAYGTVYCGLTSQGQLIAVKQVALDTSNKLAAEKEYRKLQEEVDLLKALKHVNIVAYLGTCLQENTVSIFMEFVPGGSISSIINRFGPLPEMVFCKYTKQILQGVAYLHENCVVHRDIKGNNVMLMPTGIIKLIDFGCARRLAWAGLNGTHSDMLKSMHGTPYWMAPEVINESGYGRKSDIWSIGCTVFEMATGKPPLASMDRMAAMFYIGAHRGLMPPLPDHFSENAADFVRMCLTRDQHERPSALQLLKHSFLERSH
UniProt Q8NE63, sequence (whole entry, looked up): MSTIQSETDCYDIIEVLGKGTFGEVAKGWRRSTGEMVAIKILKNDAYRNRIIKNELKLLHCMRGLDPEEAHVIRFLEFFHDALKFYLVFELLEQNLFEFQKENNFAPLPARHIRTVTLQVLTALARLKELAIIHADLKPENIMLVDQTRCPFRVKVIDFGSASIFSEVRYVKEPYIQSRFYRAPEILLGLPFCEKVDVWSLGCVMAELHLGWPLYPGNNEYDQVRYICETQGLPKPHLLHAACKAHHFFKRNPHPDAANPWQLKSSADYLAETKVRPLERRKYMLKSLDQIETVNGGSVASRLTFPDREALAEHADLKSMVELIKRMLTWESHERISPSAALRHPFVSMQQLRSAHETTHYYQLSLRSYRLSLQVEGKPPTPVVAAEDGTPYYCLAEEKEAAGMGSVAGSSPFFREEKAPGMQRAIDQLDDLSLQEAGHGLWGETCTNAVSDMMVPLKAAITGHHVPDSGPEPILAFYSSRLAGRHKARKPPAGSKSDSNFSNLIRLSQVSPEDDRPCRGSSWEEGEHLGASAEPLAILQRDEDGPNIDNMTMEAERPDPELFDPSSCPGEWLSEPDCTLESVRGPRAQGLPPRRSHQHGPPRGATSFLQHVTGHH
UniProt P07947, sequence (whole entry, looked up): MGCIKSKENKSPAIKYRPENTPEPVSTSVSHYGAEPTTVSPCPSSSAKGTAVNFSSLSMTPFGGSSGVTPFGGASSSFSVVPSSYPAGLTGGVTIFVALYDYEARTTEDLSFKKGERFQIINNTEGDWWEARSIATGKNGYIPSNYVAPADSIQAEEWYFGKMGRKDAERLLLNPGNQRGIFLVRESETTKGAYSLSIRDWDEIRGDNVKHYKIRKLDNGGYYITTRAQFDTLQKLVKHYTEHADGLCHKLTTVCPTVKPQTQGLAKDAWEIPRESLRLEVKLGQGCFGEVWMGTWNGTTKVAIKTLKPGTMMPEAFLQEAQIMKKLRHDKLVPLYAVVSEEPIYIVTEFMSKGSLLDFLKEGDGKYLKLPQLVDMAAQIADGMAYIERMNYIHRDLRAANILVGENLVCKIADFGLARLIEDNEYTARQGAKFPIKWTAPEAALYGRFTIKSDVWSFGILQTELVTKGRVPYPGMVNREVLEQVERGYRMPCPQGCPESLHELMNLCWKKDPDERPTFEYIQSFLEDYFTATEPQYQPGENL

Block 1
Compound: CNCc1ccccc1-c1csc([C@@H](C)Nc2nc(C)nc3cc(OC)c(OC)cc23)c1
Effect on: cell-free assay
Technique: competition with immobilised ligand
Concentration: 1 µM
It gave 86% for remaining binding (HIPK4 (Homo sapiens, UniProt Q8NE63)).
OXSR1 (Homo sapiens, UniProt O95747) — remaining binding: 67%.
Tyrosine-protein kinase JAK3, JH1 (JAK3, Homo sapiens, UniProt P52333) — remaining binding: 94%.
It gave 78% for remaining binding (Tyrosine-protein kinase ABL1, non-phosphorylated (ABL1, Homo sapiens, UniProt P00519, H396P)).
For EPHB2 (Homo sapiens, UniProt P29323): remaining binding read 100%.
It gave 83% for remaining binding (MAP4K1 (Homo sapiens, UniProt Q92918)).
For MAP3K19 (Homo sapiens, UniProt Q56UN5): remaining binding read 71%.
For DSTYK (Homo sapiens, UniProt Q6XUX3): remaining binding read 83%.
PHKG1 (Homo sapiens, UniProt Q16816) — remaining binding: 83%.
It gave 48% for remaining binding (FLT3 (Homo sapiens, UniProt P36888, D835V/ITD)).
The remaining binding was 100% (RIOK2 (Homo sapiens, UniProt Q9BVS4)).
The remaining binding was 87% (BMP2K (Homo sapiens, UniProt Q9NSY1)).
The remaining binding was 100% (ALK (Homo sapiens, UniProt Q9UM73, L1196M)).
For FLT1 (Homo sapiens, UniProt P17948): remaining binding read 87%.
It gave 100% for remaining binding (EIF2AK1 (Homo sapiens, UniProt Q9BQI3)).
For GRK4 (Homo sapiens, UniProt P32298): remaining binding read 80%.
PAK5 (Homo sapiens, UniProt Q9P286) — remaining binding: 95%.
For STK10 (Homo sapiens, UniProt O94804): remaining binding read 95%.
It gave 100% for remaining binding (ACVR2B (Homo sapiens, UniProt Q13705)).
For NEK10 (Homo sapiens, UniProt Q6ZWH5): remaining binding read 73%.

Block 2
Target: DNA polymerase theta, ATPase domain (POLQ, Homo sapiens, UniProt O75417)
UniProt O75417, sequence (whole entry, unmodified, looked up): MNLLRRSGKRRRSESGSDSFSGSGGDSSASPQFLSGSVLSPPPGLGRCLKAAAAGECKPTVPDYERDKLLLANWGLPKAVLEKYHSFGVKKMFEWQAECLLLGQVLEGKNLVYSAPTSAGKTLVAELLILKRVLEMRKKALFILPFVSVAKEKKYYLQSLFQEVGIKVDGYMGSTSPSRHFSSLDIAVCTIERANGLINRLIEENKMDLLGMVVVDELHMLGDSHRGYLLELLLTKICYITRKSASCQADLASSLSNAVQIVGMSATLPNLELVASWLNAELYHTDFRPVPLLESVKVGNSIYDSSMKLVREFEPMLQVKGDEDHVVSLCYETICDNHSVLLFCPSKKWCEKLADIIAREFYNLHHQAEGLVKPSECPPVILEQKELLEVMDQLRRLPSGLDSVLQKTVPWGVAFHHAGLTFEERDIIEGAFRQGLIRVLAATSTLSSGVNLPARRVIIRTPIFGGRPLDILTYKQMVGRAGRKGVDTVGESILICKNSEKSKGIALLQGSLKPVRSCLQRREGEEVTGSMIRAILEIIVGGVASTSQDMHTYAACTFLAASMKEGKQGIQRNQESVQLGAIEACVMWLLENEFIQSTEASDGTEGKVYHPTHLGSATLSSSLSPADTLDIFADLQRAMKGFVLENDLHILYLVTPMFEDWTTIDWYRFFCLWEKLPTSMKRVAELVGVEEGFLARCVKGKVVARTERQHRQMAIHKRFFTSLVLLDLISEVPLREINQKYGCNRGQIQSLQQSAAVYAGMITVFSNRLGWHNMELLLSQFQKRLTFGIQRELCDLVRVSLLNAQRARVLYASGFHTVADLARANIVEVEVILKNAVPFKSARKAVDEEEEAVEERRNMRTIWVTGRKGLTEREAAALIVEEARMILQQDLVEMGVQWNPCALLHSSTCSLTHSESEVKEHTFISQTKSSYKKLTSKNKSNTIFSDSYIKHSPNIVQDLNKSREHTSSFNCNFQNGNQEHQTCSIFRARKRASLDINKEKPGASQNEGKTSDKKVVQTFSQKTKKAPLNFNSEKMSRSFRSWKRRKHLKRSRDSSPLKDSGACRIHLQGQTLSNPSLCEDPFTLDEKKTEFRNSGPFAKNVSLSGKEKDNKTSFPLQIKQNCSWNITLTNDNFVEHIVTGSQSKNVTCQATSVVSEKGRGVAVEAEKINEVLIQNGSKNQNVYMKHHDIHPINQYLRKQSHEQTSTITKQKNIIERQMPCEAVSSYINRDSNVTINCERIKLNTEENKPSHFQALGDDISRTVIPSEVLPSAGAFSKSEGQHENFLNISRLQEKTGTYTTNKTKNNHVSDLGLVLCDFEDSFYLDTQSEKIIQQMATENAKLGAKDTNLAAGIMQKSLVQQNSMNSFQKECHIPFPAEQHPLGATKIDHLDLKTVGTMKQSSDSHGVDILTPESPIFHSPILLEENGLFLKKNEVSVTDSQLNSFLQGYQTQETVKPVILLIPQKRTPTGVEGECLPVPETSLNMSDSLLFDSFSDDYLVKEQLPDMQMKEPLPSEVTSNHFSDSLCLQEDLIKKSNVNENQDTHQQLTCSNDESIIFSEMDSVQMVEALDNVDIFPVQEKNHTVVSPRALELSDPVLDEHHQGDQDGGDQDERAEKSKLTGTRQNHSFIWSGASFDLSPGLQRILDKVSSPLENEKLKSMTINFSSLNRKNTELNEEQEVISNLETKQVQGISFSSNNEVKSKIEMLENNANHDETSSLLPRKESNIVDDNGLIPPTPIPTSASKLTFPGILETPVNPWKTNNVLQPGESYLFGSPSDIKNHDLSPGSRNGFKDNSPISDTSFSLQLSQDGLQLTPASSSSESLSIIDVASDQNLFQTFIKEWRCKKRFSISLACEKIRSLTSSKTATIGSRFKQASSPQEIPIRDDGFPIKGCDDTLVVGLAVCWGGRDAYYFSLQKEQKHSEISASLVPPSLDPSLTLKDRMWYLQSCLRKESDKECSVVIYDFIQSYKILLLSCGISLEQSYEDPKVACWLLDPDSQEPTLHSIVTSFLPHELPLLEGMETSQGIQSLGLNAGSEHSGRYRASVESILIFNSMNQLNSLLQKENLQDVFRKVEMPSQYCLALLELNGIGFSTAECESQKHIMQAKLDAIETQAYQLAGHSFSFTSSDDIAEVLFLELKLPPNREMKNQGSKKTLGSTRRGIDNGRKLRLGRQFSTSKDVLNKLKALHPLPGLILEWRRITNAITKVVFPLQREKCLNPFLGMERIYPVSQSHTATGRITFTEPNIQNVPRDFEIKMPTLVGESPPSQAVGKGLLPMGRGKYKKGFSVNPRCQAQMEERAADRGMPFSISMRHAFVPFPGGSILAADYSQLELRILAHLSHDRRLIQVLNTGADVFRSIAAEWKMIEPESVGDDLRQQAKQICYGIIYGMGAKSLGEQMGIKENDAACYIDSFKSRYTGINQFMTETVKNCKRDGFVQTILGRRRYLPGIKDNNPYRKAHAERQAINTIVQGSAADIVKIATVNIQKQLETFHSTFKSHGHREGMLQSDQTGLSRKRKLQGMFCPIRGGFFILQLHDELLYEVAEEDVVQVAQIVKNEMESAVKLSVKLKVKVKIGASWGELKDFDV
Effect on: enzyme activity
Action: inhibitor
Concentration: 77 µM
Baseline: untreated
For Cc1cc2c(F)c(Oc3ncnn4cc(OC[C@@H](C)OC(=O)[C@H](C)N)c(C)c34)ccc2[nH]1, the remaining activity was 99%.
The remaining activity of COc1ccccc1OCC(O)CO (stereo not drawn) is reported as 101%.
With Cc1cc(C(=O)Nc2cc(Nc3ccc4c(/C=C/c5ccccn5)n[nH]c4c3)ccc2F)n(C)n1 the remaining activity was 109% and 116% and 113%.
CN1C[C@H](O)[C@@H](O)[C@H](O)[C@H]1CO has a remaining activity of 106%.
For NCCCNCCSP(=O)(O)O, the remaining activity was 103%.
CN(C)CCOC(C)(c1ccccc1)c1ccccn1 (stereo not drawn) has a remaining activity of 98.4% and 102%.
For Cc1ccc(Nc2nccc(N(C)c3ccc4c(C)n(C)nc4c3)n2)cc1S(N)(=O)=O, the remaining activity was 109% and 107% and 106% and 81.1% and 99%.
With COc1ccc(-c2cc(=O)c3c(O)cc(O)cc3o2)cc1O the remaining activity was 103%.
C[C@]12CCC3=C4CCC(=O)C=C4CC[C@H]3[C@@H]1CC[C@@]2(O)CC#N has a remaining activity of 92.9%.
COc1ccc2c(c1)c(CC(=O)OCC(=O)O)c(C)n2C(=O)c1ccc(Cl)cc1 gave a remaining activity of 102% and 97.1%.
For C[C@H]1[C@H](C)CC[C@]2(C(=O)O)CC[C@]3(C)C(=CC[C@@H]4[C@@]5(C)CC[C@H](O)C(C)(C)[C@@H]5CC[C@]43C)[C@H]12, the remaining activity was 91% and 98.6%.

Block 3
Organism: Sarcocystis neurona
Effect on: parasite activity
Concentration: 10 µM
Time: 96 h
Oc1c(Cl)cc(Cl)c2cccnc12 — result for activity class: “active”.
Under activity class, CC(C)[C@H](N)C(=O)OCCOCn1cnc2c(=O)[nH]c(N)nc21 is recorded as “inactive”.
For Cc1c(O)c(=O)ccn1C, activity class read “inactive”.
Under activity class, CCN(CC)CCOC(=O)c1ccc(N)cc1 is recorded as “inactive”.
Under activity class, CCCCC(=O)O[C@]1(C(=O)CO)CC[C@H]2[C@@H]3CCC4=CC(=O)CC[C@]4(C)[C@H]3[C@@H](O)C[C@@]21C is recorded as “inactive”.
O=c1[nH]c(=O)n(C2CCCO2)cc1F (stereo not drawn) — result for activity class: “inactive”.
Under activity class, CCOC(=O)[C@H](CCc1ccccc1)N[C@H]1CCc2ccccc2N(CC(=O)O)C1=O is recorded as “inactive”.
CC(=O)OCC(=O)[C@@]1(O)CC[C@H]2[C@@H]3CCC4=CC(=O)CC[C@]4(C)[C@H]3[C@@H](O)C[C@@]21C: activity class “inactive”.

Block 4
SMILES: O=C(Nc1cnn(-c2csc(C(=O)NC3COC3)c2)c1)Nc1c(F)cccc1Cl
Concentration: 5 µM
For INSRR (Homo sapiens, UniProt P14616); enzyme activity; baseline: untreated control: remaining activity read 70.3%.
It gave 89.8% for remaining activity (SRPK3 (Homo sapiens, UniProt Q9UPE1); kinase activity, kinase panel profiling).
For TSSK6 (Homo sapiens, UniProt Q9BXA6); enzyme activity; baseline: untreated control: remaining activity read 92.6%.
YES1 (Homo sapiens, UniProt P07947); enzyme activity; baseline: untreated control — remaining activity: 90.5%.
MASTL (Homo sapiens, UniProt Q96GX5); enzyme activity, inhibitor — remaining activity: 93.7%.
It gave 94.6% for remaining activity (ERN1 (Homo sapiens, UniProt O75460); enzyme activity; baseline: untreated control).
For ROCK1 (Homo sapiens, UniProt Q13464); enzyme activity; baseline: untreated control: remaining activity read 75.7%.
For KSR1 (Homo sapiens, UniProt Q8IVT5); enzyme activity, inhibitor: remaining activity read 105%.
The remaining activity was 81.4% (PRKCI (Homo sapiens, UniProt P41743); enzyme activity; baseline: untreated control).
The remaining activity was 104% (TEK (Homo sapiens, UniProt Q02763); enzyme activity; baseline: untreated control).
It gave 92.6% for remaining activity (MAPKAPK3 (Homo sapiens, UniProt Q16644); enzyme activity; baseline: untreated control).
DYRK1A (Homo sapiens, UniProt Q13627); enzyme activity; baseline: untreated control — remaining activity: 74.4%.

Some of these lines once more (block 3):
Oc1c(Cl)cc(Cl)c2cccnc12 — result for activity class: “active”.
Under activity class, CC(C)[C@H](N)C(=O)OCCOCn1cnc2c(=O)[nH]c(N)nc21 is recorded as “inactive”.
For Cc1c(O)c(=O)ccn1C, activity class read “inactive”.
Under activity class, CCN(CC)CCOC(=O)c1ccc(N)cc1 is recorded as “inactive”.
Under activity class, CCCCC(=O)O[C@]1(C(=O)CO)CC[C@H]2[C@@H]3CCC4=CC(=O)CC[C@]4(C)[C@H]3[C@@H](O)C[C@@]21C is recorded as “inactive”.
O=c1[nH]c(=O)n(C2CCCO2)cc1F (stereo not drawn) — result for activity class: “inactive”.
